Measured values pooled from the literature.
A part holds a random share of what one study measured.

Study 1 — technique: RNA Bind-n-Seq; form: RNA; medium: in vitro; concentration: 1 µM; setting: whole 134-nt RNA, ends assumed; added: 150 mM KCl; reference: input library; direction: higher = stronger binding
Target: Ras GTPase-activating protein-binding protein 1, RRM domain (G3BP1, Homo sapiens, UniProt Q13283)
Sequence of UniProt Q13283 (whole entry, looked up): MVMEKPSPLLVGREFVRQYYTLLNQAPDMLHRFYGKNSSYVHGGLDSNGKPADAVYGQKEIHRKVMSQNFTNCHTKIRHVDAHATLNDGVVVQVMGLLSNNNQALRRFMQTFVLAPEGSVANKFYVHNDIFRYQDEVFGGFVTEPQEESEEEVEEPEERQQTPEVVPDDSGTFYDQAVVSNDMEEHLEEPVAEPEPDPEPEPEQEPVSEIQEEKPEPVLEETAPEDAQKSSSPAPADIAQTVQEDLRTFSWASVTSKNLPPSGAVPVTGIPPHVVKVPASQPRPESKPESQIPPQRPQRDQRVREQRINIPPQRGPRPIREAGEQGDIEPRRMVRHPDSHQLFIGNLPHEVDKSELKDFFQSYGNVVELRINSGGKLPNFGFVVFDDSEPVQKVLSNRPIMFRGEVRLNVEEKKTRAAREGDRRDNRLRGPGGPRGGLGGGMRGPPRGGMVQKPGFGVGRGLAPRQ
Oligonucleotide	log2 enrichment
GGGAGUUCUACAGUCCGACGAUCACCAUGCAGGUGGGCAUCUUUGGGAAGUGGGGCAAGGGGGGGAUAGGGAGGGGGGUAACACUCUGGGAACAGGUGGUCCCAGGUCGUUUCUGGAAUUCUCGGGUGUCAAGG	0.666
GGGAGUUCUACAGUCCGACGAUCCACAGACAACACGCACCCACACAGACACAGAGGGAAGGGGUUGGGAUGGGGACAGGGUGCACAGCAGGGCAAAGUAGGACCCCAGCCCCUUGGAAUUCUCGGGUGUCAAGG	-0.0659
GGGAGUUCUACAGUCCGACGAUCUAGUCCAGCAUCAAGAUUCGCCGGCCUGGAUACAAAUCAGCGACUUACAGCUUUAGCUGAAGACAGACCGUUAUUUGAUGGACCUAGUAGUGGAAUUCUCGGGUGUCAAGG	-0.243
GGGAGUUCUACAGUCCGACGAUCGUCCUGUGCUACACAUCGUAUGUACCGAAUCGGGGCCCCCGGGGCCCCCGGGCCCCCGGAAAGUAUUAUGUUACGCCGUUCGGAUCUGCAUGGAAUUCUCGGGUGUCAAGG	-0.606
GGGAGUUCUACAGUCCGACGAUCUCCUGUGCUACACAUCGUAUGUACCGAAUCGGGGAAAAAGGGGUGGGGAAAAAAAGGGGAAAGUAUUAUGUUACGCCGUUCGGAUCUGCAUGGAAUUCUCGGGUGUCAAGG	0.655
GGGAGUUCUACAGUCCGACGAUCCAAGUCCUGUGCUACACAUCGUAUGUACCGAAUCGGAAAGGGGAAAGGGAAAGGGAAAGUAUUAUGUUACGCCGUUCGGAUCUGCACUUCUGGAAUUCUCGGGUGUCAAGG	0.162
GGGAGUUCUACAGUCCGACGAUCUGGUGACCUACCUGGACGUCCGGAGCUGCCUUGGACACCUAGGCUACCUGGGCUACCCCACCCUCUGUGAGCAGGACCAGGCCCAUGCCAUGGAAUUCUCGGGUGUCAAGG	-0.163
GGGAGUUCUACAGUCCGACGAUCCAAGUCCUGUGCUACACAUCGUAUGUACCGAAUCGGGGCCCGGCCCGGGGCCCGGAAAGUAUUAUGUUACGCCGUUCGGAUCUGCACUUCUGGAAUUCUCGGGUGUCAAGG	-0.845
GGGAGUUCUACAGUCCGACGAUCUCGGCUACACUGCCCGGAGAAUUCUCAAUGAGGAUGGCAGCCCUAACCUGGACUUCAAGCCUGAAGACCAGCCCCAUUUUGACAUCAAGGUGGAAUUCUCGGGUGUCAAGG	-0.0215
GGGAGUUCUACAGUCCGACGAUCUGGAGAGGGAAGUCCCAAUGGUGCUAGAAUGGUGCUGCAGUGGCAGAAGACGGCUCACAAGUGAGGUCUGGAAGAACAACAGGGAAGACAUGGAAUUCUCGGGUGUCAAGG	0.0514

Study 2 — technique: RNA Bind-n-Seq; form: RNA; medium: in vitro; concentration: 365 nM; reference: no-protein control; direction: higher = stronger binding
Target: RNA binding protein fox-1 homolog 2, RRM domain, GST-SBP tag (RBFOX2, Homo sapiens, UniProt O43251-10, residues 100-194)
Setting: natural RNA segment, single round, ends assumed
Residues (chain): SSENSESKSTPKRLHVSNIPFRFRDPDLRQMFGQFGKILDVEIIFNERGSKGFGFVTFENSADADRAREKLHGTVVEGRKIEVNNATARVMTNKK
Oligonucleotide	RBNS enrichment (R)
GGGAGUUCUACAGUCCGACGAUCGAUGACCUGUCAAUAAACUUUUUUUUACUAAUGAACUGUACAUUUAAAUAAAAGUUUAUUUUUGGGAUAAUUGUGAGCCUUUCCUUUCUCUAGAGACCUUUUAUAAAAGCUGGAAUUCUCGGGUGCCAA	0.713
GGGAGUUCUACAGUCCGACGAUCCAUUUCUCUUUCGUCUCAACAGUAGACAACUAGGAUGUGGAUCUCAUAUUUAUAAGUAUGCAUUUUAUUUAAGAGGAAGUAUAGGCUUGACUCUGGUUCACAAUUUCGUAUGGAAUUCUCGGGUGCCAA	1.62
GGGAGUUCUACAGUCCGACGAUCAAAGUUCCAGAGCCUCCCUCGAAGGUUCUCUACUACUGUAUUCUGUACAUAAUGUACCAUCCCAUGUGGAAUCUGUGAGUGUCCUCUUAAGUAGCGUGGGCUAGCCAAUCUGGAAUUCUCGGGUGCCAA	0.338
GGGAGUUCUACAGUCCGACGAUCCAUGACACAUGCCUCUGGCAAAGCCAUCCAGCCUGUACUGCCUCCGUGGAAGGCCUAGACCCAGCAGAGACCCCUUGGUGGGUCUGCCAUGCCUGUGGGGAAACACUGCUUGGAAUUCUCGGGUGCCAA	0.772
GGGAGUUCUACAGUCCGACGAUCGCACUUCCGCAUCUGCCCGUGGGCGCCCCACAGCUGCCCCUCAGCCGCUGAGAUCCAGUGUCCAAGCUGCGGCCAGGAGUCCACCCACCUCCGCAUCCACCCCCGUCCGCUGGAAUUCUCGGGUGCCAA	0.552
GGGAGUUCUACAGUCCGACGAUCCCCUGGGAGCCCCCUCCCUGCAACCAGCCUGAGUUCAGCCCCACGGACAAAGGGACACACAGCCCCCAAUGGAGACCAUUGUAAGUGGUGGGGCUGGGAGAGGAGGAACAUGGAAUUCUCGGGUGCCAA	0.634
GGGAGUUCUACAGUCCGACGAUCACACAGAGAGUAACUGAAGCCUAUCUUAAGCAAAGAGAAACCACCCGUCCACUCUGGGGCUGCCCUACUGAAUGCCCCUUUCCAGGACCUUGGUAUUCCUUCUCAUUCAGUGGAAUUCUCGGGUGCCAA	0.232
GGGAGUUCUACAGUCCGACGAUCUAGCAGAAUAUAGUUUGGAGUUUGGCUUCAUCUUCCUGGGGUUCCCCUCACUCCCUUUUUUGUCAACCCCAUCUGUAGCCUCUUCCUCUACUCAGGCAGUCGACCCGCCAUGGAAUUCUCGGGUGCCAA	0.881
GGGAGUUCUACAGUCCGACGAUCAUACGUUUACAGAGGAAACUUGAUCAUUUCCAACCAUCUUCCCCUACCCCACCCUCUCGCCCCUGGCACCUGUCUUCUAUUUGUCGAGUUCACUGUUGAUCCUGUUGUAGUGGAAUUCUCGGGUGCCAA	0.668
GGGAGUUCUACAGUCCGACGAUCCUGUGUUCUUGUUUUGUUCAUGGUGUUUCUAAGCGUUUUGCUGAAGCUGCUCUCAGGCACCCCCUUCUUCAUUGCUCUCUCCAGAAAGGGUUGCUAGCCUUAACUUCAGCUGGAAUUCUCGGGUGCCAA	0.649
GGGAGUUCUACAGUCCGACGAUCAAGGAGGAGCCGGCACCUAGCAACUGCGGCCUCGCACGGAACUGCCAUCCUGUGAGGGCAGCGGUGGCGCCCGGCAAAGUUGGAGCCCUUGCGGUACCAGAAAGCAGCGAUGGAAUUCUCGGGUGCCAA	0.424
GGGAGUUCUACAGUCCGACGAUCUGAGACCCUAGAGACCAGCGAAGGGAGAAGUUGGGAAGCUACGUUCUGUUGGCCACCAGACUUGCAUUUCAGCCUCUGUCAUAAUGCUCUGCCCUCCCUCCCCCGAAGGUUGGAAUUCUCGGGUGCCAA	0.519

Study 3 — technique: protein binding microarray; form: double-stranded DNA, one strand shown; medium: in vitro; concentration: not given; reference: not given; direction: higher = stronger binding
Target: Histone acetyltransferase KAT6A, winged helix 2, GST fusion (KAT6A, Homo sapiens, UniProt Q92794, residues 85-181)
Setting: 8-mer, flanks averaged, mean of 2 arrays, mostly near background
Target sequence (chain): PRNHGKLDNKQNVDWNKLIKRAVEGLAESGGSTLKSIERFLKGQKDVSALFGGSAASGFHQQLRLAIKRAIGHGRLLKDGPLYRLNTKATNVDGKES
Oligonucleotide	E-score
CGTCGCGC	0.0895
TATCTCAA	0.0324
ATTCCCCC	0.00579
ACTAGAAA	-0.0328
AACAGGTT	-0.133
ATCCGGGG	0.182
AACGTCTA	-0.198
ACAGCGGA	0.0518
TCCATCCA	-0.125
CTAGCATC	0.0286
CTACCGGA	-0.0926
AACCAACT	-0.0932
ATTTTGGG	0.0253
CGGCCGAA	0.227
CACCGAGA	-0.0684
ATGGTCCA	-0.0523
AACCAGAG	-0.055
ACGGTCAT	0.0172
GATCCTAA	-0.196
GCTAGGAC	-0.118
CCTGGAAC	-0.056
ATTACAGA	0.182
GATAGCCA	-0.0944
GCGCCGCC	0.299
AACCGCAA	0.175

Study 4 — technique: aptamer microarray, sandwich; form: DNA with 2'F-ANA; medium: in vitro; concentration: 200 nM; added: Cy3 exosite-II aptamer, 400 nM; direction: higher = stronger binding; oligonucleotide: GGTTGGTGTGGTTGG
Target: Prothrombin, mature alpha-thrombin (F2, Homo sapiens, UniProt P00734)
Setting: whole 15-mer aptamer, many near background
Modification	mean fluorescence intensity [a.u.]
2'F-ANA at 4 6 9 11 13 14 15	129
2'F-ANA at 1 4 10 11 12 13 15	56.8
2'F-ANA at 1 3 5 6 7 12 13 14 15	46.4
2'F-ANA at 1 2 5 7 8 10 14 15	47.4
2'F-ANA at 1 2 5 6 7	57
2'F-ANA at 1 3 5 8 12 13 14	49
2'F-ANA at 3 4 8 9	868
2'F-ANA at 2 3 6 8 9 10 12 13 15	335
2'F-ANA at 3 5 6 7 8 14	91.3
2'F-ANA at 3 4 5 8 9 12 15	225
2'F-ANA at 1 3 6 9 14 15	76.8
2'F-ANA at 4 5 9 11 12 14	46
2'F-ANA at 1 3 4 11 12 13 14	87.9
2'F-ANA at 2 3 6 9 10 13 14 15	238
2'F-ANA at 4 6 7 9 12 13 15	275
2'F-ANA at 2 4 5 7 11 12 13 14	48
2'F-ANA at 2 3 4 5 7 9 10	89.2

Repeated from above (study 3):
Oligonucleotide	E-score
CTACCGGA	-0.0926
AACCAACT	-0.0932
ATTTTGGG	0.0253
CGGCCGAA	0.227
CACCGAGA	-0.0684
ATGGTCCA	-0.0523
AACCAGAG	-0.055
ACGGTCAT	0.0172
GATCCTAA	-0.196
GCTAGGAC	-0.118
